Assay results of several laboratories.
Every numbered part comes from another study and shows a few of its results, in no order. Positions count from the first letter of the parent shown.

Block 1
Target: Ras GTPase-activating protein-binding protein 1, C-terminal RGG region (G3BP1, Homo sapiens, UniProt Q13283)
UniProt Q13283, sequence (whole entry, looked up): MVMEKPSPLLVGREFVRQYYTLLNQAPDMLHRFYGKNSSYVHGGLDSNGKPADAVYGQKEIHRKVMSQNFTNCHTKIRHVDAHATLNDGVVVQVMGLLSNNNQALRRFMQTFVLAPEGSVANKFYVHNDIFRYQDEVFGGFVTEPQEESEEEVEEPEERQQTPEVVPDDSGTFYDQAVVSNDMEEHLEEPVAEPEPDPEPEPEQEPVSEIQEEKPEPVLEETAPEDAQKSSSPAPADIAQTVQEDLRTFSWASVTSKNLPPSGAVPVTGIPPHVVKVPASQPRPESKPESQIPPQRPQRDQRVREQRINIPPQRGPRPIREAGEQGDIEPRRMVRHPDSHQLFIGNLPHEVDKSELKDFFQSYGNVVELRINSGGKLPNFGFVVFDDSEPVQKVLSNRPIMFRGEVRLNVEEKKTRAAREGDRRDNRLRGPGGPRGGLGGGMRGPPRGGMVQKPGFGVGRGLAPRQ
Method: RNA Bind-n-Seq
Molecule type: RNA
Sample: in vitro
Tested at: 1 µM
Setting: whole 134-nt RNA, ends assumed
With: 150 mM KCl
Reference: input library
Reading: higher = stronger binding
Constant ends, left off below: GGGAGUUCUACAGUCCGACGAUC … UGGAAUUCUCGGGUGUCAAGG
Sequence | log2 enrichment
UGGCCCUGGUGGCAUGCGGGGAGGAAGAGGUGGCCUCAUGGAUCGUGGUGGUCCCGGUGGAAUGUUCAGAGGUGGGCGUGGUGGAGACAG | 3.21
AAGUCCUGUGCUACACAUCGUAUGUACCGAAUCGGAAAGGUUUUUGGUUUUUUUGGAAAGUAUUAUGUUACGCCGUUCGGAUCUGCACUU | -2.07
UAACUUUAGAGGAGGAUCUGAUGGAUAUGGCGGUGGACGUGGAUUUGGGGAUGGCUAUAAUGGGUAUGGAGGAGGACCUGGAGGUGGCAA | -1.65
UAACUUUAGAGGAGGAUCUGAUGGAUAUGGCUGUGGACGUGGAUUUGGGGAUGGCUAUAAUGGGUAUGGAGGAGGACCUGGAGGUGGCAA | -1.35
AAGUCCUGUGCUACACAUCGUAUGUACCGAAUCGGGAAAAAGGGUUUGGGAAAGGGAAAGUAUUAUGUUACGCCGUUCGGAUCUGCACUU | 1.08
AAGUCCUGUGCUACACAUCGUAUGUACCGAAUCGGGUGGGUUUUUUUGGGUUUGGGAAAGUAUUAUGUUACGCCGUUCGGAUCUGCACUU | 0.00578
AGUUCUAUCUCUGGGGUGACUGCCGCAUAUAACCGAGAACAGCUGUGGCUGGCCAAUGAAGGCCUGAUCACCAGGCUGCAGGCUCGCUGC | -0.94
AAGUCCUGUGCUACACAUCGUAUGUACCGAAUCAAACCCCCAAACCCAAACCCAAAAAAGUAUUAUGUUACGCCGUUCGGAUCUGCACUU | -1.23
CAAGUCCUGUGCUACACAUCGUAUGUACCGAAUCGGUUUUUUUGGAGGAAAAAGGAAAGUAUUAUGUUACGCCGUUCGGAUCUGCACUUC | -1.63
ACCAUGCAAAUGGGCAUCUUUGGGAAGUGGGGCAAGGGGGGGAUAGGGAGGGGGGUAACACUUUGGGAACAGGUGGUCCCAGGUCGUUUC | -1.12
GCAGGAAGUAAAAACAAAUGGAAAUGCUUCGGAUAGUGGCAGGGGAAAGGGUUGCUAAGGAAAGGGUGGGAUGGGAGUGGGUAAAGAGUU | 1.32
ACCAUGCAGGUGGGCAUCUUUGGGAAGUGGGGCAAGGGGGGGACAGGGAGGGGGGUAACACUUUGGGAACAGGUGGUCCCAGGUCGUUUC | 2.4
UGGGAGGUGGAUGUUGUUUAUUUUUUUAGCUCAUUUCCAGGGGUGGGAAUUUUUUUUUAAUAUGUGUCAUGAAUAAAGUUGUUUUUGAAA | 2.89
CACAGACAACACGCACCCACACAGACACAGAGGGAAGGGGUUGGGAUGGAGACAGGGUGCACAGCAGGGCGGGGUAGGACCCCAGCCCCU | -0.964

Block 2
Target: ABI1, truncated, D143A, DHFR fusion (Arabidopsis thaliana)
Method: DHFR PCA, deep sequencing
Sample: yeast
Setting: methotrexate growth selection, single substitutions
With: (+)-ABA 0.032 µM
Reference: wild-type fitted maximum
Reading: higher = stronger binding
Starting sequence: PYL1, truncated, DHFR fusion (Arabidopsis thaliana); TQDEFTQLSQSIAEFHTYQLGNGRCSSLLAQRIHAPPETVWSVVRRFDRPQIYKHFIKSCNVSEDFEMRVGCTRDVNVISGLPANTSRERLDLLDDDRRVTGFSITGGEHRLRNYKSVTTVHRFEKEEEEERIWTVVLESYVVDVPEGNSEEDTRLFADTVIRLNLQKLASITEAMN; partner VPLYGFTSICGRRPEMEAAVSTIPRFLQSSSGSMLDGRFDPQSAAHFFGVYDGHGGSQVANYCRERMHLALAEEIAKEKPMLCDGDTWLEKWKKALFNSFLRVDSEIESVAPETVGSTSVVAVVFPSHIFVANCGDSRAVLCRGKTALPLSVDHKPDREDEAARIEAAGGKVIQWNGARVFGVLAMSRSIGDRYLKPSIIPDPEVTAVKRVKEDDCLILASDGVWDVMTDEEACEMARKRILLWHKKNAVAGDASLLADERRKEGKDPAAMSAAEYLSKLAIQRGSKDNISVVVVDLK
Change | relative binding score
R32K | 27.9%
F5S | 3.53%
S80I | 22%
E131D | 45.3%
L138D | 2.42%
G102P | 2.33%
Y115R | -0.279%
V78S | 9.63%
E67T | 21.1%
D144E | 2.27%
I162V | 39.2%
N165M | 2.48%

Block 3
Target: Histone acetyltransferase KAT6A, winged helix 1, GST fusion (KAT6A, Homo sapiens, UniProt Q92794, residues 1-85)
Method: protein binding microarray
Molecule type: double-stranded DNA, one strand shown
Sample: in vitro
Tested at: not given
Setting: 8-mer, flanks averaged, mean of 2 arrays, mostly near background
Reference: not given
Reading: higher = stronger binding
Target sequence (chain): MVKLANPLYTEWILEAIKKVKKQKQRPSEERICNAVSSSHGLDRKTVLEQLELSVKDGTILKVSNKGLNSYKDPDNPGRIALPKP
Sequence | E-score
CTTGGCGC | 0.276
TACTAACA | -0.0166
AACAGAGG | -0.17
AGCTTAAA | -0.0741
CGTCCAAC | 0.00771
CTGCATGA | -0.219
ATAAGAGA | -0.126
CCTATAAC | -0.247
CAGCGTCA | 0.0265
AGGCTGCC | -0.175
ACACAATC | -0.105
AGGGTTAT | -0.139
CCTCCTCG | -0.108
ACTCTACC | -0.104
AGGTTCAG | -0.233
TACAAAGA | -0.134
AAACCTGT | -0.188
CGCCTTTA | 0.0999
ATTCCCTA | -0.0216
ACATATCG | -0.0169
GGTACCGA | 0.211
ATCGCCAA | 0.0274
AGTCCCAT | -0.0863

Block 4
Target: Centromere-binding protein 1, full length, His-tagged (CBF1, Saccharomyces cerevisiae, UniProt P17106, residues 1-351)
UniProt P17106, sequence (whole entry, looked up): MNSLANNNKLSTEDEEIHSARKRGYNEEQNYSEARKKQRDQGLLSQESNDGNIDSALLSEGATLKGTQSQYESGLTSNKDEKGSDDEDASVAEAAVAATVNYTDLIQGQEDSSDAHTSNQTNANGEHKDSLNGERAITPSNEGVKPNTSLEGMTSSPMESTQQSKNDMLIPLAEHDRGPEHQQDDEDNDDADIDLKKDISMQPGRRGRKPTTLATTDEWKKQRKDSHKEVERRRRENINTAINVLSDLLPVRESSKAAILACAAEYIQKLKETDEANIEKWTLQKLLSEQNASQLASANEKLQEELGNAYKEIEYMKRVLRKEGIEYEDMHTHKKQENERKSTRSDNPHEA
Method: competition protein-binding microarray
Molecule type: double-stranded DNA, one strand shown
Sample: in vitro
Tested at: 2 µM
Setting: whole 60-bp probe, lowest competitor level
With: Pho4 competitor, 0.05 µM
Reading: higher = stronger binding
Constant ends, left off below: … GTCTTGATTCGCTTGACGCTGCTG
Sequence | fluorescence intensity [a.u.]
CTTCTGTAAATTTGATGTGTGGGTGGACGCGCCCCG | 104
CCTCCTCTACCGTTCGACATGACAAAAAGGCGTTGG | 68.8
CATACCCAACCTTGGTTTGTGGGTGAAGATATTTGT | 69.2
ACACTGAATCCGGGCAACGTGTCCAGAACTTGCATT | 85
TGCGCAACAACTTGTCACTAAACTTTATGTCTAGAA | 81.5
GAGACAGGCACTCACCACGTGAGGAAGAATTAGAGC | 1630
AAATTACTAAGTTGCCTTGTGGGTGACGCCGTATGA | 62.3
GCTTGTGAACAGCGTCACAGATCCAGTTGTAACGAG | 73
TCAGAATGCAAGAAACACGTGAAAAGGTGGAACTTT | 979
AGATGAAGCTCTCACCACGCACCATTAAATGTAAAC | 70.6
CTAACGAAGGTTTGTCGAGTGGGTGACAAGCCAAGT | 76.9
TAGTTGCATCATCGACACATGCAATATCAAAAGTAA | 100
GCCACATCCTTTACCCACGTGCTTTTTTAGCCAGAC | 1230
TCGCCGATCTCCCCTCACATGTACACTTTTAATCAG | 252
AAATTACTAAGTTGTCACCATACTTACCCCGTATGA | 90
CATACCCAACCTTGTCATGTGGGTGAAGATATTTGT | 224
AAGCTAAAGCTCCGTCACGTGTAGGTGGATACTGTT | 2730
AAAATCTGTATGACTCACGTGCAAATCATCCATGAG | 1710
CACCGACTGCTTCCGTGCGTGATGGGTAATGCAGTG | 90.5
AAACAACTTTAGTGCCGCGTGATGGCGGGGGTTGAA | 195
TGACTTGAATTCCAACACGTGGATTATTTCCTCATT | 1270
TTATAAAGAAACCGTCACGTTCTGGATGCGACGTCG | 265
GGTCAAAAGAGAGGAGATGTGACGGGAGCCAAATTG | 73.2
CTTCTGTAAATTTGTCACGTAACTTGACGCGCCCCG | 156
CTTTCCCGATCTTGAGAGGTGGGTGTAGCACATTTG | 55.4

Block 5
Target: Sal-like protein 4, full length isoform B (SALL4, Homo sapiens, UniProt Q9UJQ4-2, residues 1-616)
Method: universal PBM
Molecule type: double-stranded DNA, one strand shown
Sample: in vitro
Tested at: not given
Setting: 8-mer, flanks averaged, mean of replicates
Reading: higher = stronger binding
Sequence | E-score
AGCTCTCC | -0.158
GCTCACCC | -0.321
AAGGAAGA | 0.00198
GATGCCCC | -0.342
CCACGGAA | -0.0691
AATCAAGG | 0.103
GGAACCGA | -0.24
GCCACTCC | -0.134
ATGAGTAA | 0.206
CACGTGCG | -0.225
CGGACGAG | -0.217
ACTTGAAT | 0.264
CTGACCAA | -0.123
AGAGCGGC | -0.235
TGTTGAAA | 0.211
CGCGCCTC | -0.34
GCCGGAGA | -0.21

Repeated from above (block 3):
Sequence | E-score
CTTGGCGC | 0.276
ACATATCG | -0.0169
AGCTTAAA | -0.0741
CCTCCTCG | -0.108
AGGTTCAG | -0.233
ACTCTACC | -0.104
CTGCATGA | -0.219
ATTCCCTA | -0.0216
